Published values from different studies.
Lines come from different studies, so protocols differ. “And” joins repeats or separate records; there may be more than shown. ± gives the spread as reported.

Compound = N.N.[Cl][Pt][Cl]; system = nude mouse MCF7 xenograft; conditions = 5 mg/kg, day 6; quantity = body weight; result = 15.1 ± 0.74 g
Compound = CO[C@H]1C[C@@H]2CC[C@@H](C)[C@@](O)(O2)C(=O)C(=O)N2CCCC[C@H]2C(=O)O[C@H]([C@H](C)C[C@@H]2CC[C@@H](OC(=O)NCCOCCOCCOCCOCCOCCOCCOCCOCCC(=O)N3CCc4cc(Cn5nc(-c6ccc7oc(N)nc7c6)c6c(N)ncnc65)ccc4C3)[C@H](OC)C2)C[C@@H](O)[C@H](C)/C=C(\C)[C@@H](O)[C@@H](OC)C(=O)[C@H](C)C[C@H](C)/C=C/C=C/C=C/1C; system = mouse, HCC1954 xenograft; conditions = 1 and 3 mg/kg, weekly; quantity = body weight; result = not toxic
Compound = CC(C)[C@@H]1NC(=O)CNC(=O)[C@H](CC(N)=O)NC(=O)[C@H](CCCNC(=N)N)NC(=O)[C@H](Cc2ccc(O)cc2)NC(=O)[C@H](C(C)C)NC(=O)[C@@H](NC(=O)[C@@H](NC(=O)[C@H](CC(N)=O)NC(=O)[C@H](Cc2c[nH]c3ccccc23)NC(=O)[C@H](C)NC(=O)[C@H](Cc2ccccc2)NC(=O)CN)C(C)C)CSSC[C@@H](C(=O)N[C@@H](Cc2cnc[nH]2)C(=O)N[C@@H](CCCNC(=N)N)C(=O)N[C@@H](CCCNC(=N)N)C(=O)N[C@@H](C)C(=O)N[C@@H](CC(N)=O)C(N)=O)NC(=O)[C@H](C(C)C)NC(=O)[C@H](CCCNC(=N)N)NC1=O; system = ICR mouse; conditions = ip, 5 mg/kg; scale = direction not given; quantity = body posture score; result = 0
Compound = CCCCc1nc2cc(/C=C/C(=O)NO)ccc2n1CCN(CC)CC; system = mouse, MOLM-13 subcutaneous xenograft; conditions = 125 mg/kg every other day, day 7; scale = relative to: baseline; quantity = body weight; result = 99.5%
Compound = COc1cccc2c1C(=O)c1c(O)c3c(c(O)c1C2=O)C[C@@](O)(C(=O)CO)C[C@@H]3O[C@H]1C[C@H](N)[C@H](O)[C@H](C)O1; system = CD-1 mouse; conditions = intravenous, 5 mg/kg; scale = negative means weight gain; quantity = body weight loss; result = -17.7%
Compound = CC(C)C[C@H](NC(=O)[C@H](CCCCN)NC(=O)OCC1c2ccccc2-c2ccccc21)C(=O)N[C@H](C(=O)N[C@@H](Cc1ccccc1)C(=O)N[C@@H](Cc1ccccc1)C(=O)N[C@@H](CCCCN)C(=O)NCC(=O)N[C@@H](Cc1ccccc1)C(=O)N[C@@H](C)C(=O)N[C@@H](Cc1c[nH]c2ccccc12)C(=O)N[C@@H](CC(N)=O)C(=O)N[C@H](C(=O)N[C@H]1CSSC[C@@H](C(=O)N[C@@H](Cc2c[nH]cn2)C(=O)N[C@@H](CCCNC(=N)N)C(=O)N[C@@H](CCCNC(=N)N)C(=O)N[C@@H](C)C(=O)N[C@@H](CC(N)=O)C(N)=O)NC(=O)[C@H](C(C)C)NC(=O)[C@H](CCCNC(=N)N)NC(=O)[C@H](C(C)C)NC(=O)CNC(=O)[C@H](CC(N)=O)NC(=O)[C@H](CCCNC(=N)N)NC(=O)[C@H](Cc2ccc(O)cc2)NC(=O)[C@H](C(C)C)NC1=O)C(C)C)C(C)C; system = ICR mouse; conditions = ip, 5 mg/kg; scale = direction not given; quantity = body posture score; result = 0
Compound = CC(=O)c1c(C)c2cnc(Nc3ccc(C4CCN(CCS(C)(=O)=O)CC4)cn3)nc2n(C2CCCC2)c1=O; system = mouse SW-620 xenograft; conditions = 80 mg/kg twice daily; quantity = body weight loss; result = < 10%
Compound = CC(C)C[C@H](NC(=O)CNC(=O)CNC(=O)CNC(=O)[C@H](Cc1ccc(O)cc1)NC(=O)[C@H](CC(C)C)NC(=O)[C@@H](NC(=O)CNC(=O)[C@H](Cc1ccc(O)cc1)NC(=O)[C@H](CCCCN)NC(=O)[C@H](CC(N)=O)NC(=O)[C@@H](NC(=O)[C@H](CCCCN)NC(=O)[C@H](Cc1c[nH]c2ccccc12)NC(=O)CN)[C@@H](C)O)[C@@H](C)O)C(=O)N[C@@H](CCCCN)C(=O)N[C@@H](CCCCN)C(=O)N[C@@H](CC(C)C)C(=O)N[C@@H](CC(C)C)C(=O)N[C@@H](CC(C)C)C(=O)N[C@@H](CC(C)C)C(=O)N[C@@H](CC(C)C)C(=O)N[C@@H](CCCCN)C(=O)N[C@@H](CCCCN)C(=O)N[C@@H](CC(C)C)C(=O)NCC(=O)O; system = C57BL/6 mouse; conditions = intraperitoneal, 40 mg/kg, 5 days; scale = relative to: untreated; quantity = body weight; result = no effect
Compound = N.N.[Cl][Pt][Cl]; system = mouse xenograft model; conditions = dose not given, day 0; quantity = body weight; result = 25 g and 26 g and 24 g

A few entries again:
Compound = N.N.[Cl][Pt][Cl]; system = mouse xenograft model; conditions = dose not given, day 0; quantity = body weight; result = 25 g and 26 g and 24 g
